Published values of several laboratories.
Each numbered part is a random draw from the data of one study; scales do not carry over between parts.

Series 1 — technique: protein-binding microarray; form: hairpin DNA; sample: in vitro; concentration: not given; reference: not given; direction: higher = stronger binding
Target: Runt-related transcription factor 3, Runt domain (RUNX3, Homo sapiens, UniProt Q13761, residues 53-186)
Sequence of UniProt Q13761 (53-186, looked up): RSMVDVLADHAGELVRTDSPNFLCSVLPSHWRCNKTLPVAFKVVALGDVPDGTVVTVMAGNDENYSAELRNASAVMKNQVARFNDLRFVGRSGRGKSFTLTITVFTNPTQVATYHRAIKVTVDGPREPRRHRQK
Setting: whole hairpin DNA, median over replicate spots
| Sequence | median fluorescence [a.u.] |
| --- | --- |
| CTCAGCGCTGTGGGCTGGACTCCTGTCCAGCCCACAGCGCTGAGACACTC | 4570 |
| CTCAGCTCTGTGGGCTGGACTCCTGTCCAGCCCACAGAGCTGAGACACTC | 4300 |
| GAGGCCTGTTGTGGTTCGCCTCCTGGCGAACCACAACAGGCCTCACACTC | 4900 |
| GAGGCCTCGTGTGGTTGGCCTCCTGGCCAACCACACGAGGCCTCACACTC (5mC at 8) | 5030 |
| CTCAGTTCTGTGGGGTGGACTCCTGTCCACCCCACAGAACTGAGACACTC | 4150 |
| CTCAGTCGTGTGGGCTGGACTCCTGTCCAGCCCACACGACTGAGACACTC | 4170 |
| GAGGCCCAACCGCGACAGCCTCCTGGCTGTCGCGGTTGGGCCTCACACTC (5mC at 13 31) | 9230 |
| GAGGCCCAACCGCAACGGCCTCCTGGCCGTTGCGGTTGGGCCTCACACTC | 9100 |

Series 2 — observed: peptide-MHC binding; form: peptide; concentration: concentration not given
Target: HLA class I histocompatibility antigen, A alpha chain, allele A*80:01 (Homo sapiens, UniProt P04439)
| Molecule | binding |
| --- | --- |
| HLLCQAFSV | inactive |
| ELLDHLLLF | inactive |
| IEDDEIIWV | inactive |
| MPWLDNIVE | inactive |
| TTRAVNMEV | inactive |
| LLIQGLKTV | inactive |
| DPPEPLVRI | inactive |

Series 3 — target: UBE2A UBC core domain (UniProt P49459); technique: yeast two-hybrid; sample: yeast; setting: mostly zero background; reference: not given; direction: higher = stronger interaction
Sequence of UniProt P49459 (whole entry, looked up): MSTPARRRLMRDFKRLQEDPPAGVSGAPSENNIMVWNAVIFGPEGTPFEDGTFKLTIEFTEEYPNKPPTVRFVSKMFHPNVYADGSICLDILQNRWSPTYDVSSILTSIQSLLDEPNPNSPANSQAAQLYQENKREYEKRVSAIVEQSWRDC
B1: MKRN1 RING domain (UniProt Q9UHC7); chain FAVQRSKDMVCGICMEVVYEKANPSERRFGILSNCNHTYCLKCIRKWRSAKQFESKIIKSCPECRITSNFVIPSE
B2: VPS41 RING domain (UniProt P49754); chain KGVLVDEENICESCLSPILPSDAAKPFSVVVFHCRHMFHKECLPMPSMNSAAQFCNICSAKNRGPGSAI
B3: TRIM4 RING domain (UniProt Q9C037); chain EAEDIQEELTCPICLDYFQDPVSIECGHNFCRGCLHRNWAPGGGPFPCPECRHPSAPAALRP
B4: RNF38 RING domain (UniProt Q9H0F5); chain PNNHQSEQTLCVVCMCDFESRQLLRVLPCNHEFHAKCVDKWLKANRTCPICRADASEVHRDS
B5: TRIM40 RING domain (UniProt Q6P9F5); chain LQKDNQEEGVCPICQESLKEAVSTNCGHLFCRVCLTQHVEKASASGVFCCPLCRKPCSEEVLG
B6: SH3RF2 RING domain (UniProt Q8TEC5); chain DDLTLLDLLECPVCFEKLDVTAKVLPCQHTFCKPCLQRVFKAHKELRCPECRTPVFSNIEAL
B7: TRAF5 RING domain (UniProt O00463); chain FVERLEERYKCAFCHSVLHNPHQTGCGHRFCQHCILSLRELNTVPICPVDKEVIKSQEVFK
| Molecule | lacZ reporter activity |
| --- | --- |
| GAAPGPEAAECLVCSELALLVLFSPCQHRTVCEECARRMKKCIRCQVVVSKKLRPD (MIB2 RING domain (UniProt Q96AX9)) | 0 |
| B1 (MKRN1 RING domain) | 0 |
| B2 (VPS41 RING domain) | 0 |
| B3 (TRIM4 RING domain) | 0 |
| B4 (RNF38 RING domain) | 0 |
| B5 (TRIM40 RING domain) | 0 |
| B6 (SH3RF2 RING domain) | 0 |
| VEPSEENSKDCVVCQNGTVNWVLLPCRHTCLCDGCVKYFQQCPMCRQFVQESFALC (CGRRF1 RING domain (UniProt Q99675)) | 0 |
| FQGDVDEDLICPICSGVLEEPVQAPHCEHAFCNACITQWFSQQQTCPVDRSVVTVAHLRP (RNF41 RING domain (UniProt Q9H4P4)) | 0 |
| B7 (TRAF5 RING domain) | 0 |
| PAELEVQASECVVCLEREAQMIFLNCGHVCCCQQCCQPLRTCPLCRQDIAQRLRIY (LRSAM1 RING domain (UniProt Q6UWE0)) | 0 |

Series 4 — technique: RNAcompete; form: RNA; sample: in vitro; concentration: 20 nM; setting: 7-mer, probes averaged, single round; reference: mean of 7-mers; direction: higher = stronger binding
Target: PABPC1L2, full length, GST fusion (mouse, UniProt A0ABA7IW68)
Residues (chain): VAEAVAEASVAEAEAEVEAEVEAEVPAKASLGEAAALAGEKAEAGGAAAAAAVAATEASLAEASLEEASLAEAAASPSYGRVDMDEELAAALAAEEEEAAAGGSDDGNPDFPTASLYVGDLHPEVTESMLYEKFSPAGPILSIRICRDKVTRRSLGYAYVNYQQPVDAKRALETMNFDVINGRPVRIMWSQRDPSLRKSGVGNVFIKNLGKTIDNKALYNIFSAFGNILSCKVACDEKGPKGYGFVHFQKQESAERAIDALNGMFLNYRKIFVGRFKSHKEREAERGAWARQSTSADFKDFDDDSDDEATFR
| Sequence | 7-mer Z-score |
| --- | --- |
| UGACGGU | -0.0409 |
| AUCGCUA | -0.208 |
| UGUACGU | -0.291 |
| CCAGUCC | -0.233 |
| UAAUUUU | -0.318 |
| UUCUUGG | -0.231 |
| CGUACCG | -0.233 |
| AAGAUAC | 0.521 |

Some of these lines once more (series 3):
| Molecule | lacZ reporter activity |
| --- | --- |
| FQGDVDEDLICPICSGVLEEPVQAPHCEHAFCNACITQWFSQQQTCPVDRSVVTVAHLRP (RNF41 RING domain (UniProt Q9H4P4)) | 0 |
| B7 (TRAF5 RING domain) | 0 |
| PAELEVQASECVVCLEREAQMIFLNCGHVCCCQQCCQPLRTCPLCRQDIAQRLRIY (LRSAM1 RING domain (UniProt Q6UWE0)) | 0 |
